Experimental data pooled from the literature.
Lines come from different studies, so protocols differ.
UCHL1: Ubiquitin carboxyl-terminal hydrolase isozyme L1 (UCHL1, Homo sapiens, UniProt P09936)
Chain of UniProt P09936 (whole entry, looked up): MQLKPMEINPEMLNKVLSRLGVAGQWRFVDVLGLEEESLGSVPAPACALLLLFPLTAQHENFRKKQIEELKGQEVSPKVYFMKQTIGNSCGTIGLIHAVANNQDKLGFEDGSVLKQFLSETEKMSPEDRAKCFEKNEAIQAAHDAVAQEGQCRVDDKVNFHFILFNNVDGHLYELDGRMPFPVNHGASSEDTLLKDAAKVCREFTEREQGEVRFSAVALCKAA

`CC(F)(F)c1cc(F)ccc1-c1sc2cc(O)ccc2c1Oc1ccc(/C=C/C(=O)O)cc1` gave an AUC(0-last) of 5.73 µg·h/mL (human, serum; oral, 200 mg once daily, cycle 1 day 28, fasted, mean).
For `Cc1cccc(NC(=O)C(C#N)=Cc2ccc(F)c(F)c2)c1`, the labelling was 20% (UCHL1; covalent, intact protein LC-MS; 12.5 µM).
For `CC(C)n1nc(-c2ccc3oc(N)nc3c2)c2c(N)ncnc21`, the AUC(0-last) was 1.98 µg·h/mL (human, plasma; oral, 30 mg once weekly, cycle 1 day 1).
With `CC(C)NC(=O)COc1cccc(-c2nc(Nc3ccc4[nH]ncc4c3)c3ccccc3n2)c1` the AUC(0-last) was 8.43 µg·h/mL (human male, plasma; oral, 200 mg, day 5, fed, alone, geometric mean).
The AUC(0-last) of `CCOc1c([C@H](C)n2nc(C)c3c(N)ncnc32)cc(Cl)c(F)c1[C@@H]1CNC(=O)C1` is reported as 9.63 µM·h (human patients, plasma; oral, 30 mg, day 1, geometric mean).
The AUC(0-last) of `Cc1noc(C)c1-c1cc(C(O)(c2ccccn2)c2ccccn2)c2nc(C3CC3)[nH]c2c1` is reported as 4.49 µg·h/mL (human, fasted, plasma; oral, 9 mg once daily, cycle 1 day 8).
For `C=CC(=O)N(C)CCOc1c(N)ncnc1-c1cc(F)cc(NC(=O)c2ccc(C3CC3)cc2F)c1C`, “AUC(0-last) per dose” read 4.37 ng·h/mL/mg (human; oral, 50 mg, day 3, geometric mean, given alone).
`CC(C)C1OC1(C#N)C(N)=C(C#N)C#N` (centres unmarked) gave a labelling of 28% (UCHL1; covalent, intact protein LC-MS; 12.5 µM).
For `CN(C)C(=O)c1cc2cnc(Nc3ccc(N4CCNCC4)cn3)nc2n1C1CCCC1`, the AUC(0-last) was 6.56 µg·h/mL (human, mild renal impairment, plasma; oral, 400 mg, geometric mean).
Under “AUC(0-last) fed/fasted ratio”, `C=CC(=O)N1CCC[C@@H](n2c(=O)n(-c3ccc(Oc4ccccc4)cc3)c3c(N)nccc32)C1` is recorded as 2.24 (human; oral, 60 mg; relative to: fed over fasted).
`COC(=O)N[C@@H](C)CNc1nccc(-c2cn(C(C)C)nc2-c2cc(Cl)cc(NS(C)(=O)=O)c2F)n1` gave an AUC(0-last) median of 13.2 µg·h/mL (humans, plasma; oral, dose not given, day 14, steady state, with: binimetinib).

Excerpt of the above:
For `CC(C)n1nc(-c2ccc3oc(N)nc3c2)c2c(N)ncnc21`, the AUC(0-last) was 1.98 µg·h/mL (human, plasma; oral, 30 mg once weekly, cycle 1 day 1).
